Assay results of several laboratories.
Protocols differ between the studies behind these lines. Values joined by “and” are separate records of one study, mostly repeats; a detail may differ. ± marks the error that the study gave. Converted amounts (≈) assume the structure as drawn.

| Structure (SMILES) | organism | assay | test system | setting | how to read | quantity | value |
| --- | --- | --- | --- | --- | --- | --- | --- |
| CNc1ccc(S(=O)(=O)Nc2ccc(OC)nc2)cc1 | Leishmania infantum | intracellular amastigote growth | U-937 macrophages and HeLa |  | baseline: IC50 HeLa over IC50 amastigotes | selectivity index | > 1.8 |
| C[C@@H]1O[C@@H](OC[C@H]2O[C@@H](Oc3c(-c4ccc(O)c(O)c4)oc4cc(O)cc(O)c4c3=O)[C@H](O)[C@@H](O)[C@@H]2O)[C@H](O)[C@H](O)[C@H]1O | human immunodeficiency virus 1 | viral replication | TZM-bl cells, NL4-3 (CXCR4-tropic) | 48 h |  | IC50 | > 100 µM |
| COc1cccnc1-c1nc2ccccn2c1Nc1ccc(F)cc1 | Leishmania infantum |  | macrophages, MHOM/MA(BE)/67/ITMAP263, amastigote |  |  | IC50 | 31.1 µM and 33.2 µM |
| CC1CCC(C(C)C)C(OC2=C(Cl)C(=O)c3ccccc3C2=O)C1 (stereo not drawn) | Bacillus cereus |  | MTCC 430 | 10 µg/mL |  | zone of inhibition | 18 mm |
| Cc1cc(-c2cn[nH]c2-c2cccc(OCc3cccc(C#N)c3)c2)cc(C)n1 | anaerobic commensal bacteria |  |  | up to 128 µg/mL, aqueous solubility limit |  | antibacterial activity | inactive |
| Nc1nc(-c2ccccc2)nc2[nH]nc(Nc3ccc(C(F)(F)F)cc3)c12 | coxsackievirus B3 |  | 31-1-93, NMRI mice, CVB3 chronic myocarditis | oral, 100 mg/kg twice daily, day 4, dosed days 3 to 10, score scale 0 to 7 | direction not given | clinical score | 0.8 |
| COc1ccc(S(=O)(=O)Nc2cc(OC)c(NC(=O)CCl)cc2OC)cc1 | Leishmania infantum | intracellular amastigote growth | U-937 macrophages and HeLa |  | baseline: IC50 HeLa over IC50 amastigotes | selectivity index | 0.16 |
| Fc1cc(F)cc(N/N=C/c2ccc(-c3ccc(/C=N/Nc4cc(F)cc(F)c4)cc3)cc2)c1 | Candida and Aspergillus |  |  | concentration not given, strain panel |  | antifungal activity | inactive |
| CC(C)C[C@H](NC(=O)OCc1ccccc1)C(=O)N[C@H](C=O)C[C@@H]1CCCNC1=O | human rhinovirus 16 | cytopathic effect, SRB | MRC5 | 72 h |  | EC90 | 16.8 ± 2.5 µM |
| N=C(N)c1ccc(OCCC(CCOc2ccc(C(=N)N)cc2)c2ccccc2)cc1 (stereo not drawn) | Escherichia coli |  | BW25113 | concentration not given, lowest-FICI combination, with: rifampicin |  | MIC in combination | 12.5 µg/mL |
| c1ccc(-c2nc3n(c2-c2ccncc2)CCC3)nc1 | Leishmania infantum |  | intramacrophage amastigotes, MHOM/MA(BE)/67/ITMAP263 |  |  | IC50 | > 64 µM |
| O=C1O[C@H]2[C@@H]3OC(=O)c4cc(O)c(O)c(O)c4-c4c(O)c(O)c5oc(=O)c6c(c(O)c(O)c7oc(=O)c4c5c76)-c4c(cc(O)c(O)c4O)C(=O)OC[C@H]3OC(O)[C@@H]2OC(=O)c2cc(O)c(O)c(O)c2-c2c1cc(O)c(O)c2O (mixture of isomers) | Streptococcus gordonii | broth microdilution |  |  |  | MBC/MIC ratio | 4 |
| CCN(c1ccc(F)cc1)c1c(-c2ccccn2)nc2ccccn12 | Leishmania infantum |  | macrophages, MHOM/MA(BE)/67/ITMAP263, amastigote |  |  | IC50 | 1.26 µM |
| CCOC(=O)CSC1=N/C(=C\c2ccc(C(C)C)cc2)C(=O)N1c1ccccc1 | Bacillus cereus |  | ATCC 14579 | concentration not given |  | inhibition zone diameter | 16 ± 0.55 mm |
| O=C(O)C=Cc1ccc(O)cc1 | human immunodeficiency virus 1 | viral replication | TZM-bl cells, BaL (CCR5-tropic) | 48 h |  | IC50 | > 100 µM |
| COC(=O)c1cccc(Cn2ccc3ccc(-c4ccc5ccn(Cc6cccc(C(=O)O)c6)c5c4)cc32)c1 | human immunodeficiency virus 1 | viral attachment, MAGI cell | MAGI cells, Ba-L | 3 h postinfection washout, CCR5-tropic |  | IC50 | 13.4 µM |
| COC(=O)C1CCN(C(=O)c2ccc(N(CCO)Cc3cnc4nc(N)nc(N)c4n3)cc2)CC1 | Leishmania infantum | amastigote growth | THP-1-derived macrophages | 10 µM, 72 h |  | inhibition | 10 ± 2% |
| Fc1ccc(Nc2c(-c3ccccn3)nc3cc(F)ccn23)cc1 | Leishmania infantum |  | macrophages, MHOM/MA(BE)/67/ITMAP263, amastigote |  |  | IC50 | 32.2 µM and 23.9 µM |
| C#CCON=C1C=CC(=C(C#N)c2ccccc2)C=C1 | Candida parapsilosis | broth dilution | ATCC 22099 | 48 h, 37 °C |  | MFC | 32 µg/mL (≈ 123 µM) |
| CC(C)Oc1ccc(N/N=C/c2ccc(-c3ccc(/C=N/Nc4ccc(OC(C)C)cc4)cc3)cc2)cc1 | Candida and Aspergillus |  |  | concentration not given, strain panel |  | antifungal activity | inactive |
| CC(C)CCC[C@@H](C)[C@H]1CC[C@H]2[C@@H]3CCC4=CC(=O)CC[C@]4(C)[C@H]3CC[C@]12C | Leishmania mexicana |  | mouse bone marrow macrophages, C57BL/6 mice | intracellular amastigotes | baseline: Pentostam over compound IC50 | relative potency | ~100 |
| O=C1C[C@@H](c2ccc(O)cc2)Oc2cc(O)cc(O)c21 | human immunodeficiency virus 1 | viral replication | TZM-bl cells, NL4-3 (CXCR4-tropic) | 48 h |  | IC50 | > 100 µM |
| O=[N+]([O-])c1ccc(N2CCN(S(=O)(=O)c3ccc(F)cc3)CC2)cc1NCc1cccnc1 | Aedes aegypti |  |  | 100 µM, 48 h, 1 instar larvae |  | larval mortality | > 80% |

| Structure (SMILES) | organism | assay | test system | setting | how to read | quantity | value |
| --- | --- | --- | --- | --- | --- | --- | --- |
| OC(Cn1cncn1)(Cn1cncn1)c1ccc(F)cc1F | Alternaria alternata |  | ITCC 4522 | 10 µg/mL |  | zone of inhibition | 23 mm |
| O=[N+]([O-])c1ccc(N2CCN(S(=O)(=O)c3ccc(Cl)cc3)CC2)cc1NCc1cccnc1 | Aedes aegypti |  |  | 100 µM, 24 h, first instar larvae |  | larval mortality | ~2% |
| COC(=O)[C@H](Cc1c[nH]c2ccccc12)NCc1cc2ccccc2nc1SC | Pseudomonas aeruginosa |  |  | 4 µg/mL, with: pentamidine 50 µM | baseline: control | growth | 97% |
| COc1ccc(NS(=O)(=O)c2ccc(N(C)C=O)cc2)cn1 | Leishmania infantum | intracellular amastigote growth | U-937 macrophages and HeLa |  | baseline: IC50 HeLa over IC50 amastigotes | selectivity index | > 2.3 |
| CCCCN(Cc1c(-c2ccccn2)nc2ccc(C)cn12)c1ccc(F)cc1 | Leishmania infantum |  | MHOM/MA(BE)/67/ITMAP263 | 120 h | baseline: CC50 macrophages over EC50 amastigotes | selectivity index | 3.2 |
| Oc1cc(O)c2c(c1)O[C@H](c1cc(O)c(O)c(O)c1)[C@@H](O)C2 | Streptococcus gordonii | broth microdilution |  |  |  | MBC/MIC ratio | 4 |
| CO[C@H]1[C@H](O[C@H]([C@H]2O[C@@H](n3ccc(=O)[nH]c3=O)[C@H](O)[C@@H]2O)[C@H](NCCCNC(=O)[C@@H](NC(=O)[C@@H](NC(=O)N[C@H](C(=O)O)C(C)C)[C@@H]2CCN=C(N)N2)[C@@H](O)C(C)C)C(=O)O)O[C@H](CN)[C@H]1O | Bacillus cereus | microplate alamar blue | NRRL B-568 |  |  | MIC90 | > 35 µg/mL |
| COc1ccc(-c2nc3ccc(OC)cn3c2Nc2ccc(F)cc2)nc1 | Leishmania infantum |  | macrophages, MHOM/MA(BE)/67/ITMAP263, amastigote |  |  | IC50 | 2.69 µM and 2.16 µM |
| Cc1ccc(C(C)C)c(OC2=C(Cl)C(=O)c3ccccc3C2=O)c1 | Bacillus cereus |  | MTCC 430 | 10 µg/mL |  | zone of inhibition | 21 mm |
| COC(=O)[C@H](Cc1c[nH]c2ccccc12)NCc1cc2ccccc2nc1OC | Pseudomonas aeruginosa |  |  | 64 µg/mL, without pentamidine | baseline: control | growth | 91% |
| CCc1nn(C)c2nc(-c3ccc(C(=O)O)cc3)nc(NCc3ccc(F)cc3)c12 | Cryptosporidium parvum |  | HCT-8 | EC90, 6 h | baseline: DMSO control | parasite number | 118% and 127% and 107% and 136% |
| O=C(/C=C/c1ccccc1O)/C=C/c1ccccc1C(F)(F)F | Aedes aegypti | larval mortality | fourth instar larvae | 72 h |  | LC50 | 17.3 µM |
| Fc1ccc(Nc2c(-c3ccccn3)nc3ccncn23)cc1 | Leishmania infantum |  | macrophages, MHOM/MA(BE)/67/ITMAP263, amastigote |  |  | IC50 | > 64 µM and 38.1 µM |
| CC(=O)NC[C@H]1CN(c2ccc(N3CCOCC3)c(F)c2)C(=O)O1 | Staphylococcus epidermidis |  | methicillin-resistant, 10 isolates | pH 8.5 |  | MIC50 | 2 µg/mL (≈ 5.93 µM) |
| O=C1/C(=C/c2ccc3ccccc3c2O)NC(=S)N1c1ccccc1 | Bacillus cereus |  | ATCC 14579 | concentration not given |  | inhibition zone diameter | 25 ± 0.5 mm |
| CC(C)n1ncc2c(C(=O)NCC3(C)CNC3)cc(C3CC3)nc21 | coxsackievirus A6 | CPE | RD | 0.5 µM |  | cell protection | 96.3% and 99.1% |
| Cc1ccc(NC(=O)N2Cc3[nH]cnc3C[C@H]2c2nc(-c3ccc4c(c3)OCO4)no2)cc1 | Caenorhabditis elegans |  | N2 | 50 µM |  | median lifespan | 21 days |
| Cc1cc(OC(C)C)ccc1C(=O)C(C)(C)NC(=O)c1sccc1C | Globisporangium spinosum | mycelial growth | PSA medium | 20 °C, suspension concentrate 400 g/L |  | EC50 | > 50 µg/mL |
| Cc1cc(C)c2cc(C(=O)NC3CCCCCCC3)[nH]c2c1 | Mycobacterium abscessus |  | THP-1 |  | baseline: THP-1 IC50 over MIC | selectivity index | > 237 |
| Cc1ccc2nc(-c3ccccc3)c(CNc3ccc(F)cc3)n2c1 | Leishmania infantum |  | MHOM/MA(BE)/67/ITMAP263 | 120 h | baseline: CC50 macrophages over EC50 amastigotes | selectivity index | 1 |
| COCC(=O)N1CCCC(C(=O)NCc2nc(-c3ccccc3)cs2)C1 (racemic) | Plasmodium falciparum |  | Dd2 | concentration not given |  | EC50 | 0.11 µM |
| CC(C)c1ccc(/C=C2\N/C(=N/c3ccccc3)N(N)C2=O)cc1 | Bacillus cereus |  | ATCC 14579 | concentration not given |  | inhibition zone diameter | 12 ± 0.46 mm |
